# Measurements of several laboratories.
# Compare with care: the assays were run in different laboratories. “And” joins repeats or separate records; there may be more than shown. Numbers after ± are the reported error.
# dcp2 with Dcp1: mRNA decapping complex subunit 2, with Dcp1 (dcp2, Schizosaccharomyces pombe, UniProt O13828)
# Sequence of UniProt O13828 (whole entry, looked up): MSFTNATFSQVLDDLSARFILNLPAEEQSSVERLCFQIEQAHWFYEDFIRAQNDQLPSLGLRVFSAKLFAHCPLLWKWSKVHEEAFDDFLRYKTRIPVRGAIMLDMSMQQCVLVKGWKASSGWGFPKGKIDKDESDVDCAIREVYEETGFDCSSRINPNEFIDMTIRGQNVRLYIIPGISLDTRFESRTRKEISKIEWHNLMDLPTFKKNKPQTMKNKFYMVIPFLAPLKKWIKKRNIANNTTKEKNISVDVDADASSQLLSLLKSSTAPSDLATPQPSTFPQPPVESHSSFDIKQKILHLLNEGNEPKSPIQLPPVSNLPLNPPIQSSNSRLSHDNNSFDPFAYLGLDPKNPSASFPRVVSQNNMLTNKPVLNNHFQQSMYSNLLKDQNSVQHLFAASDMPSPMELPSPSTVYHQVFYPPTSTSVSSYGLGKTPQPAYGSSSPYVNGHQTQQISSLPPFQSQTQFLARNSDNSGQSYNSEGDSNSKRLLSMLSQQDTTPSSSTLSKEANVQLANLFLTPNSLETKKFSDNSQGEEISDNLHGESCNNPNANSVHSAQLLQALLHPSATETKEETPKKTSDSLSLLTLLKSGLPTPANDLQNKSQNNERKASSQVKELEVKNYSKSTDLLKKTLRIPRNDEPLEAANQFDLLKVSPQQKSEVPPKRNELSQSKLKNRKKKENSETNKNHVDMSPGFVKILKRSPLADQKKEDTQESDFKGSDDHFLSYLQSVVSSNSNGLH
# ache: Acetylcholinesterase (ache, Electrophorus electricus, UniProt O42275)
# Sequence of UniProt O42275 (whole entry, looked up): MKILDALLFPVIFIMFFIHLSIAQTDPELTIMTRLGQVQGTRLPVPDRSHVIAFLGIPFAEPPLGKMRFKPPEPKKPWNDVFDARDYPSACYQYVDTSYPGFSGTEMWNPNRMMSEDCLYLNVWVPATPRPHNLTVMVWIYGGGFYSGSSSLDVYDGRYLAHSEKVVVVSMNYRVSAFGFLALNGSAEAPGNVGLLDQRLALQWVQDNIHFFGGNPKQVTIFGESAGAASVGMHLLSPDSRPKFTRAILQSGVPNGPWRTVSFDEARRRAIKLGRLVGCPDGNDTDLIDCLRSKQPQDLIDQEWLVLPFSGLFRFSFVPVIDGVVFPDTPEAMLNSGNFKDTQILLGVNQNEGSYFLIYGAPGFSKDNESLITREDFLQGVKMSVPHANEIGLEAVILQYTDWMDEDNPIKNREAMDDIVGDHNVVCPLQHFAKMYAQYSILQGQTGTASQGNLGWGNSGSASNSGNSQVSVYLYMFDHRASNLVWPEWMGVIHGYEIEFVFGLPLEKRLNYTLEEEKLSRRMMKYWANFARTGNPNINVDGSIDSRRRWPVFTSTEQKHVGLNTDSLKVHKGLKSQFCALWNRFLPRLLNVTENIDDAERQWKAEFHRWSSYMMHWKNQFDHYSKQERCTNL
# NPY1R: Neuropeptide Y receptor type 1 (NPY1R, Homo sapiens, UniProt P25929)
# Sequence of UniProt P25929 (whole entry, looked up): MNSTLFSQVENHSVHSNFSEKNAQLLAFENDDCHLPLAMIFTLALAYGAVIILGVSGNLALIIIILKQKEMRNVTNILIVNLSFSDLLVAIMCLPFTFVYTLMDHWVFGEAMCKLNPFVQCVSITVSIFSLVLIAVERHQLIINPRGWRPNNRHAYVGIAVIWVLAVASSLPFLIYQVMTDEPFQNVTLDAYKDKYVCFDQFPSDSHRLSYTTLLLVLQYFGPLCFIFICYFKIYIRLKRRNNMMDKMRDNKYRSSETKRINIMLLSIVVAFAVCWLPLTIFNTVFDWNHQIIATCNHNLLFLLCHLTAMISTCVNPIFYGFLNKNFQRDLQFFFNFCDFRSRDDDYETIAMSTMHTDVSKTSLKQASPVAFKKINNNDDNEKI
# Sequence of UniProt Q8IVH8 (whole entry, looked up): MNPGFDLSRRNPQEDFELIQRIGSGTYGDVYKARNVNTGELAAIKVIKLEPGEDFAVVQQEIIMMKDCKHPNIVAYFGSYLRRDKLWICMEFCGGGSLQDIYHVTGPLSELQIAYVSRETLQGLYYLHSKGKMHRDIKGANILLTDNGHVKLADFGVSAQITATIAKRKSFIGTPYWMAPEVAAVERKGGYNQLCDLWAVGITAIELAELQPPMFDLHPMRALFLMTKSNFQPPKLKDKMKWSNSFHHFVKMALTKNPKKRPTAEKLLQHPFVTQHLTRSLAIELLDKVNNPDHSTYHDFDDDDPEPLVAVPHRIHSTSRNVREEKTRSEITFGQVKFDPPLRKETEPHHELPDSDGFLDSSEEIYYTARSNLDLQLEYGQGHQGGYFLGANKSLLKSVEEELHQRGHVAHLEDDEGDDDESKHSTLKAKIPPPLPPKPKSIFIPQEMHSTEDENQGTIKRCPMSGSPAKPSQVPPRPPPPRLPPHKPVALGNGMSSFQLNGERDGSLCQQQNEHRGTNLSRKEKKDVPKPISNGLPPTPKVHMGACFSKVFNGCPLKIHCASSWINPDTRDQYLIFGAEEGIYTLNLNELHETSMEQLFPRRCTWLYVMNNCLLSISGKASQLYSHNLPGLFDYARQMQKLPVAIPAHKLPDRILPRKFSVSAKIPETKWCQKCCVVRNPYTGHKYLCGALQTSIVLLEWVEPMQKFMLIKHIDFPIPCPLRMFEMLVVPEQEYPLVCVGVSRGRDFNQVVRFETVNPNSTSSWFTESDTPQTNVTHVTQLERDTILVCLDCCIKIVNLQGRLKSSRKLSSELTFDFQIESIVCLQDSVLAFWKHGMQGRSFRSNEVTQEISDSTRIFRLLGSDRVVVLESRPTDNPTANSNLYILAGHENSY
# Sequence of UniProt Q96BR1 (whole entry, looked up): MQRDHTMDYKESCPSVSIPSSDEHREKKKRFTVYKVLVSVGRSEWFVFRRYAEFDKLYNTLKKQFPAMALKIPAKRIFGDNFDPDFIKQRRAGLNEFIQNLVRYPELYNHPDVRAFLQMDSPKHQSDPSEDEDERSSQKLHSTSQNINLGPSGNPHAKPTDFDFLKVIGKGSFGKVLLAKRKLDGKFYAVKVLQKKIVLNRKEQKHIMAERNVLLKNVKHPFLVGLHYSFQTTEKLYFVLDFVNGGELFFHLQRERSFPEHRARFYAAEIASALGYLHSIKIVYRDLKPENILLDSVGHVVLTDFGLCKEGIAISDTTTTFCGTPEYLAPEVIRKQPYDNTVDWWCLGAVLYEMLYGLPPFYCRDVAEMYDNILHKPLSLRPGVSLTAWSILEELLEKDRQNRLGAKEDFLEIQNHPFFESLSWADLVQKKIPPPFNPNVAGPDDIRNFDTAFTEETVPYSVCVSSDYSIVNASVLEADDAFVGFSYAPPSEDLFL
# Sequence of UniProt Q00536 (whole entry, looked up): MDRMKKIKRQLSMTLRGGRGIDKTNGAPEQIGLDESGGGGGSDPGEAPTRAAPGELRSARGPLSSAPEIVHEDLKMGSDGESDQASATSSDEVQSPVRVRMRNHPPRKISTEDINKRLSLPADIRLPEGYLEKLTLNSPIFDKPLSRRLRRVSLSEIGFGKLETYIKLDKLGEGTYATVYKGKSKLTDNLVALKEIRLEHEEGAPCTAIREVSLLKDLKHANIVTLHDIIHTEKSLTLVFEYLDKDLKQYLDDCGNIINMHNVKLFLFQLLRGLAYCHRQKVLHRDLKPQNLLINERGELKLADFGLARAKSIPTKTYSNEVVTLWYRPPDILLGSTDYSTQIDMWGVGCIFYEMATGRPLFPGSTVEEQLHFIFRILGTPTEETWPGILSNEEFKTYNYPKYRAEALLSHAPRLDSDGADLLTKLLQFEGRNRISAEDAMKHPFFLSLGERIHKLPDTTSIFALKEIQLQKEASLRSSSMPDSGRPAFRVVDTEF
# Sequence of UniProt Q9P0L2 (whole entry, looked up): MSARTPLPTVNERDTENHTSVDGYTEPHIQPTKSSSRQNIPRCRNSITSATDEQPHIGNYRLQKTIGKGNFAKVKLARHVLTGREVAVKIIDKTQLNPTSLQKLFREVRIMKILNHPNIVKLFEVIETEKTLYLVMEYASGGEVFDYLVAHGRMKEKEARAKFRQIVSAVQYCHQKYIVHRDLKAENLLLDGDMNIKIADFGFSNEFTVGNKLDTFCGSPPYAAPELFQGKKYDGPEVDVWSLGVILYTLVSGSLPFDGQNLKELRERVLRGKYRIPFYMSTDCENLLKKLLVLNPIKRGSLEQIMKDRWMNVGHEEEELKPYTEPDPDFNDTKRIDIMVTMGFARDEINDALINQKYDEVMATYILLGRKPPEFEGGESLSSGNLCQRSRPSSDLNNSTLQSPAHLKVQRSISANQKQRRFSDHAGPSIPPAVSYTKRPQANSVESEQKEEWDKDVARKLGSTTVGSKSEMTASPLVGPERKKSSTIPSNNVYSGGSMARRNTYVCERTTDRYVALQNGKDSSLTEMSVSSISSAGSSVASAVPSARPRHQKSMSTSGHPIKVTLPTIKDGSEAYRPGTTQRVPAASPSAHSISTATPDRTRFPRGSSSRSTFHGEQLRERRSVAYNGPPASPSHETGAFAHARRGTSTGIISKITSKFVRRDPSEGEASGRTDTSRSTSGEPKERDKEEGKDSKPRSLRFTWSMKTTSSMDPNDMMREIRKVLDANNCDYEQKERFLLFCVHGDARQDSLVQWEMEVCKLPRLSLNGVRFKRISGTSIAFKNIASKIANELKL
# Sequence of UniProt P78356 (whole entry, looked up): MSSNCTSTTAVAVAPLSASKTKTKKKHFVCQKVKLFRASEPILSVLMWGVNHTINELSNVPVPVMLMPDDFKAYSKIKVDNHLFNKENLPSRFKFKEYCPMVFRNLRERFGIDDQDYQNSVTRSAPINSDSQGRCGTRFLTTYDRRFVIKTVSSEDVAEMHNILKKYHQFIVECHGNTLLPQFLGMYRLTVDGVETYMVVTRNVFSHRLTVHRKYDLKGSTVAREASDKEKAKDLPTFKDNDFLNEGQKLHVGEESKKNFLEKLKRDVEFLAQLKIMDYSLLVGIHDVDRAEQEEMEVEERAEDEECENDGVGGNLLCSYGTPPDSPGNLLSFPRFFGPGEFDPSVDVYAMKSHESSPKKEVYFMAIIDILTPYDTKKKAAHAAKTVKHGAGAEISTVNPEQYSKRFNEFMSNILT
SMILES,target,test,system,setting,inhibition
O=C(O)c1ccccc1/C=N/Nc1nc(-c2ccccc2Cl)cs1,"Cyclin-dependent kinase 4, with cyclin D3 (CDK4, Homo sapiens, UniProt P11802)","enzyme activity, inhibitor",,1 µM,9.54%
C[n+]1cn([C@@H]2O[C@H](COP(=O)(O)OP(=O)([O-])OP(=O)(O)O)[C@@H](O)[C@H]2O)c2nc(N)nc(O)c21,dcp2 with Dcp1,,,"200 µM, 0.5 h",15.1%
COc1ccccc1-n1cc(CCS(=O)(=O)F)nn1,ache,Ellman,,20 µM,21.7 ± 1.9%
O=C(NC1CCN(c2ncnc3[nH]cnc23)CC1)c1cccc(NS(=O)(=O)c2ccc(C(F)(F)F)cc2)c1,"mRNA cap guanine-N(7) methyltransferase (RNMT, Homo sapiens, UniProt O43148)","enzyme activity, inhibitor",,48.83 nM,10.3%
N[C@H](C(=O)N1CCCC1)C1CCN(c2nccc3c(-c4ncc(Cl)cc4Cl)cccc23)CC1,"Serine/threonine-protein kinase MARK1 (MARK1, Homo sapiens, UniProt Q9P0L2)","kinase activity, inhibitor",,"10 µM, added: ATP 1 mM",6.8%
NCCc1ccccn1,ache,"enzyme activity, inhibitor, Ellman",,20 µM,31.1%
C[n+]1cn([C@@H]2O[C@H](COP(=O)([S-])OP(=O)(O)OP(=O)(O)OP(=O)([S-])OC[C@H]3O[C@@H](n4c[n+](C)c5c(O)nc(N)nc54)[C@H](O)[C@@H]3O)[C@@H](O)[C@H]2O)c2nc(N)nc(O)c21 (some centres unmarked),dcp2 with Dcp1,,,"200 µM, 0.25 h",66.2%
CC(C)[C@H]1NC(=O)C[C@H]2/C=C/CCSSC[C@@H](NC1=O)C(=O)N[C@H](Cc1cccc3ccccc13)C(=O)NCC(=O)O2,"Proto-oncogene tyrosine-protein kinase ROS (ROS1, Homo sapiens, UniProt P08922)","enzyme activity, inhibitor",,10 µM,1.6%
O=C(CN1CN(c2ccccc2)C2(CCN(C(=O)c3cnc4[nH]ncc4c3)CC2)C1=O)NCC(F)(F)F,"Tyrosine-protein kinase JAK1, JH1 kinase domain (JAK1, Homo sapiens, UniProt P23458)",inhibitor,,concentration not given,< 50%
Cc1ccc(-n2cc(CCS(=O)(=O)F)nn2)cc1,ache,Ellman,,20 µM,34.6 ± 2.1%
C=CC(=O)Nc1cc(-c2nn(C3CCC(N4CCN(C(C)=O)CC4)CC3)c3ncnc(N)c23)ccc1Oc1ccccc1 (centres unmarked),"Mitogen-activated protein kinase kinase kinase kinase 3 (MAP4K3, Homo sapiens, UniProt Q8IVH8)","inhibitor, KiNativ profiling",biochemical,2 µM,16.4%
COc1ccccc1N1CCN(CCCCN2CCCc3ccccc3C2=O)CC1,"5-hydroxytryptamine receptor 4 (HTR4, Homo sapiens, UniProt Q13639)",radioligand binding,,concentration not given,-2%
CCOC(=O)[C@](CC)(CCCSCCOCCOCCNC(=O)c1ccc(-c2c3ccc(=N)c(S(=O)(=O)O)c-3oc3c(S(=O)(=O)O)c(N)ccc23)c(C(=O)O)c1)NC(=O)c1ccc(C2CC2)c(Cc2ccc(F)cc2)n1,androgen receptor (human),"specific binding, agonist radioligand binding",,10 µM,1%
CN(/N=C/c1ccccc1C(=O)O)c1nc(-c2ccccc2Cl)cs1,NPM1-ALK fusion kinase,"kinase activity, inhibitor",,1 µM,22.2% and 24.8%
CS(C)(=O)=Nc1ccc(-c2ccc(-c3nc4cc(O[C@@H]5CO[C@H]6[C@@H]5OC[C@H]6O)[nH]c4cc3F)cc2)cc1,"Serine/threonine-protein kinase Sgk3 (SGK3, Homo sapiens, UniProt Q96BR1)","enzyme activity, inhibitor",,10 µM,-9%
C[C@H](NCc1ccc(-c2ccc(C(F)(F)F)cc2)cc1)C(N)=O,"Cyclin-dependent kinase 16 (CDK16, Homo sapiens, UniProt Q00536)","cell-free assay, competition with immobilised ligand",,1 µM,30%
CN[C@@H]1[C@H](O)[C@H](NC)[C@H]2O[C@]3(O)[C@H](O[C@@H]2[C@H]1O)O[C@H](C)C[C@H]3NC(=O)Cc1cc(Cl)ccn1,NPY1R,"ligand displacement, radioligand",,10 µM,-7%
COc1ccc(F)cc1S(=O)(=O)Nc1cnc2c(c1)C(=O)NCCO2,NPY1R,"ligand displacement, radioligand",,10 µM,3%
C=CCNc1nc2cc(-c3ccc(OCCCNC)nc3)sc2c(=O)n1C,ache,"enzyme activity, inhibitor, Ellman",,5 µM,66.5%
Cc1ccc2c(n1)c(-c1cccc(S(C)(=O)=O)c1)c(C)n2C/C(F)=C/CN,"Voltage-dependent N-type calcium channel subunit alpha-1B (Cacna1b, Rattus norvegicus, UniProt Q02294)","ligand displacement, radioligand",,10 µM,2%
N#Cc1ccc(N2N=C3c4ccc(C(=O)O)cc4CCC3C2C2CCCC2)cc1Cl (centres unmarked),"Histone-lysine N-methyltransferase EHMT1 (EHMT1, Homo sapiens, UniProt Q9H9B1)","enzyme activity, inhibitor",,10 µM,1%
OB(O)c1cnn(-c2cc(Cl)ncn2)c1,"Beta-lactamase (ampC, Escherichia coli K-12, UniProt P00811)",enzyme activity,,"5 x IC50, no preincubation",~80%
CC(=O)NC[C@@H]1[C@@H](O)C[C@H]2[C@H](O)C[C@@H](CO)N12,human placental β-N-acetylglucosaminidase,,,"0.171 µM, run 2, added: p-nitrophenyl GlcNAc",70.4%
CN(C)[C@H]1C[C@@]23CC[C@@]4(O2)C(=CC[C@]2(C)[C@@H](c5ccc6ccncc6c5)CC[C@H]24)C=C3[C@@H](O)[C@@H]1O,"Phosphatidylinositol 5-phosphate 4-kinase type-2 beta (PIP4K2B, Homo sapiens, UniProt P78356)","ATP probe labelling, inhibitor, KiNativ profiling",,0.1 µM,-9.4%
CN[C@@H]1[C@H](O)[C@H](NC)[C@H]2O[C@]3(O)[C@H](O[C@@H]2[C@H]1O)O[C@H](C)C[C@H]3NC(=O)Cc1ccc(Cl)cn1,"Adenosine receptor A1 (ADORA1, Homo sapiens, UniProt P30542)","ligand displacement, radioligand",,10 µM,5%
CCN(CC)CCOc1ccc(-c2nnn(Cc3ccc(OC)cc3)c2N)cc1,GABA-A receptor,radioligand binding,HEK293,"10 µM, added: 10000 nM radioligand",-8.48%

# Repeated from above:
SMILES,target,test,system,setting,inhibition
CN(/N=C/c1ccccc1C(=O)O)c1nc(-c2ccccc2Cl)cs1,NPM1-ALK fusion kinase,"kinase activity, inhibitor",,1 µM,22.2% and 24.8%
Cc1ccc(-n2cc(CCS(=O)(=O)F)nn2)cc1,ache,Ellman,,20 µM,34.6 ± 2.1%
COc1ccccc1-n1cc(CCS(=O)(=O)F)nn1,ache,Ellman,,20 µM,21.7 ± 1.9%
O=C(O)c1ccccc1/C=N/Nc1nc(-c2ccccc2Cl)cs1,"Cyclin-dependent kinase 4, with cyclin D3 (CDK4, Homo sapiens, UniProt P11802)","enzyme activity, inhibitor",,1 µM,9.54%
